{"data": "Experimental data gathered from unrelated publications", "note": "Numbered parts are unrelated; each lists some results of a single study."}
{"data": "Series 1", "target": "Histone acetyltransferase KAT6A, both winged helices, GST fusion (KAT6A, Homo sapiens, UniProt Q92794, residues 1-181)", "technique": "protein binding microarray", "form": "double-stranded DNA, one strand shown", "sample": "in vitro", "tested at": "not given", "setting": "8-mer, flanks averaged, mean of 2 arrays, mostly near background", "relative to": "not given", "direction": "higher = stronger binding", "Construct (chain)": "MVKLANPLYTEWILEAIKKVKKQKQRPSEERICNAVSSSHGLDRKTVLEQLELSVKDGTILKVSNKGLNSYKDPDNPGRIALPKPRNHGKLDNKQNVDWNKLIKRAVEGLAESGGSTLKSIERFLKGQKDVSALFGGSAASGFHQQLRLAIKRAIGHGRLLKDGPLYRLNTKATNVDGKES"}
{"Strand": "AGTGTACG", "E-score": 0.182}
{"Strand": "GGTCCAGA", "E-score": -0.0536}
{"Strand": "GTAACAAA", "E-score": -0.0981}
{"Strand": "GACATATA", "E-score": 0.00997}
{"Strand": "AAGGGTAG", "E-score": -0.0175}
{"Strand": "TATCCCGA", "E-score": -0.00325}
{"Strand": "ATGGCAGA", "E-score": -0.0218}
{"Strand": "AGACACAC", "E-score": -0.00134}
{"Strand": "GACTGTCA", "E-score": 0.125}
{"Strand": "CGAACATC", "E-score": 0.0493}
{"Strand": "CTCTCGCC", "E-score": -0.162}
{"Strand": "TGGGAACA", "E-score": -0.235}
{"Strand": "GACGATGA", "E-score": 0.0865}
{"Strand": "GAATCGAA", "E-score": -0.0132}
{"Strand": "TCGTGCAA", "E-score": -0.0236}
{"Strand": "AATGTAGC", "E-score": -0.185}
{"Strand": "ACATTAGA", "E-score": -0.111}
{"Strand": "ATCGAAGC", "E-score": 0.00705}
{"Strand": "TCGCCAGA", "E-score": -0.128}
{"Strand": "AGCTCAAT", "E-score": -0.0904}
{"Strand": "CGGGATCC", "E-score": 0.25}
{"Strand": "CACGTTGG", "E-score": -0.231}
{"Strand": "CCGGCCAC", "E-score": 0.143}
{"Strand": "ACGGGGTG", "E-score": 0.153}
{"Strand": "AAGCTGGC", "E-score": -0.0513}
{"data": "Series 2", "target": "Interferon regulatory factor 5, full length, phosphomimetic (IRF5, Homo sapiens, UniProt Q13568-2, residues 1-514, S451D/S453D/S456D/S462D)", "technique": "protein-binding microarray", "form": "double-stranded DNA, one strand shown", "sample": "in vitro", "tested at": "940 nM top", "setting": "60-bp whole probe", "together with": "salmon DNA 0.4 mg/ml", "relative to": "random background probes", "direction": "higher = stronger binding", "shared flanks, not repeated": "GCCTAGCAC … GTCTTGATTCGCTTGACGCTGCTG"}
{"Strand": "TTAGGTCTCGGCTTCGGTTAGTGCTAG", "fitted relative affinity [z-score]": 2.44}
{"Strand": "TTAGGACTGGGGTTGCGGTTAGTGCTA", "fitted relative affinity [z-score]": 0.0716}
{"Strand": "GACGGACTCCTTTTCCTGACGTGCTAG", "fitted relative affinity [z-score]": 0.335}
{"Strand": "TCAATTTCTGTTTTTGCACTGTGCTAG", "fitted relative affinity [z-score]": 1.5}
{"Strand": "GACGGTTCCCCTTTCCTGACGTGCTAG", "fitted relative affinity [z-score]": 0.931}
{"Strand": "TCATCTAACCTCTCTAATACTGTGCTA", "fitted relative affinity [z-score]": 1.01}
{"Strand": "GACGGTGCCGGTTTCGGGACGTGCTAG", "fitted relative affinity [z-score]": 3.38}
{"Strand": "TATGGTATTTTTTTCTAATTGTGCTAG", "fitted relative affinity [z-score]": 0.807}
{"Strand": "TTAGATTTCGGGATTGGATTAGTGCTA", "fitted relative affinity [z-score]": 0.658}
{"Strand": "AACGAACTGGGGACTGGAGACGTGCTA", "fitted relative affinity [z-score]": 0.247}
{"Strand": "TTAGAACCGAGTTTCGATTAGTGCTAG", "fitted relative affinity [z-score]": 7.49}
{"Strand": "GACGGTTTCGGCTTCGGGACGTGCTAG", "fitted relative affinity [z-score]": 9.08}
{"Strand": "TCACCTGAATGAAAACATACTGTGCTA", "fitted relative affinity [z-score]": 0.185}
{"Strand": "TTAGATCTCCTTATCCTTTAGTGCTAG", "fitted relative affinity [z-score]": 0.558}
{"Strand": "TTAGATCTCAGACTGGATTAGTGCTAG", "fitted relative affinity [z-score]": -0.122}
{"Strand": "TCATATTTTTTTGTAATACTGTGCTAG", "fitted relative affinity [z-score]": 1.02}
{"Strand": "TTAGGTTTCCTTCTCCTTAAGTGCTAG", "fitted relative affinity [z-score]": 2.49}
{"Strand": "TTAGAAATGAGTTTCGATTAGTGCTAG", "fitted relative affinity [z-score]": 8.31}
{"Strand": "TTAGGTATCGACTGTCGGTTAGTGCTA", "fitted relative affinity [z-score]": 6.03}
{"Strand": "TATTATATCTGTGTTATTAAGTGCTAG", "fitted relative affinity [z-score]": 0.423}
{"Strand": "TCAACTTTCTCTGCTCTTTTCGTGCTA", "fitted relative affinity [z-score]": 2.26}
{"Strand": "TTAGATCTCAGAATGGATTAGTGCTAG", "fitted relative affinity [z-score]": -0.152}
{"Strand": "GACGTTTTCGGTTTCGGGACGTGCTAG", "fitted relative affinity [z-score]": 6.62}
{"data": "Series 3", "target": "RING finger protein unkempt homolog, zinc fingers 1-6, GST-SBP tag (UNK, Homo sapiens, UniProt Q9C0B0, residues 30-357)", "technique": "RNA Bind-n-Seq", "form": "RNA", "sample": "in vitro", "tested at": "not given", "setting": "RNA with constant flanks, human-mouse chimeric sites, ends assumed", "relative to": "input RNA pool", "direction": "higher = stronger binding", "Target sequence (chain)": "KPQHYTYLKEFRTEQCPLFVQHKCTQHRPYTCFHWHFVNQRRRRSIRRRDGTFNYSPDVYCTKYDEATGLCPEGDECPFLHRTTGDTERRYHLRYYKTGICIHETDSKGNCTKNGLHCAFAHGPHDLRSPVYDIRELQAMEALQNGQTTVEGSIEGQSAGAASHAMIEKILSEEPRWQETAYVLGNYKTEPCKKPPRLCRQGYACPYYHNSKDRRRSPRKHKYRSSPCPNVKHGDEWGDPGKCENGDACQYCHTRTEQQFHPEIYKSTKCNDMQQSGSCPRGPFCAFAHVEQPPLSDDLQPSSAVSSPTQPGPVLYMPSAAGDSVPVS"}
{"Strand": "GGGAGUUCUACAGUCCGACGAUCGUACUGCAGCAGCAGGGAAAACUGCAGGAAGCUCUGAUGCAUUAUAAGGAGGCUAUUCGAAUUAGUCCUACCUUUGCUGAUGCCUACUCCAAUAUGGGAAACACUCUAAAGGAGAUGCAGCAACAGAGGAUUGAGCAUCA", "bound/input enrichment": "0.154 ratio"}
{"Strand": "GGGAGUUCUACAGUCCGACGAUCGAAACAUUUAAAUUUAAAGAAGCUGUUGUUCUAGGAAGCACGGACUUUCUAGAAGAUGAUAUAGAGAAAAUUGUAGAAGAACUGGGAAAAGAGUAUAAGGGCAACGCCUACCAUCUGAUGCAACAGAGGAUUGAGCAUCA", "bound/input enrichment": "1.28 ratio"}
{"Strand": "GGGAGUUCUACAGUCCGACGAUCACCUCCCCCUCCCGCCUCACCCCACCCCCGCUUUUUGGAAAGUUUUUGGCGUUUCUUUUCCUUCCCCAUACAAAGUGGUUUUUACCAAGAGUCUAUGGGUCUAUCGAAGGGCUUGACGGACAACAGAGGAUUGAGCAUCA", "bound/input enrichment": "0.467 ratio"}
{"Strand": "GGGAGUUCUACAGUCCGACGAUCAAAGUGAUGACUAUGUUUGUCCAACGACAGGUGUUUGCGGAGAGCAAAGAUGAGAUUGCGUUAGUCCUCUAUGGCACAGAUGGCACUGACAAUCCCCUUGCUGGCAAGGACCAGUAUCAGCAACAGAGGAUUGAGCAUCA", "bound/input enrichment": "0.188 ratio"}
{"Strand": "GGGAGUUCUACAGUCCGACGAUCUUGCCUGAAAAUGAAGAUGAGCUGGAGAGCACCAACAGGCGCUACACCAAGAGGGACUGCAGCACUUUCCUCAGAACUAGUGAGACGGGCAUCGUGGACCAGGUCAUGGUCACUCUCAACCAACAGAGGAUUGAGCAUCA", "bound/input enrichment": "0.164 ratio"}
{"Strand": "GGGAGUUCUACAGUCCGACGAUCGGAUUCCGGUUCCGGUGCCGUUGGGCUCGGUUCUCUCCUGAGCUACGUGUCUCUACGCUCUCAAUCCGCCAUCCAACAAACAUGGAUCAGGUAAUGCAGUUUGUGGAGCCCAGCCGGCAGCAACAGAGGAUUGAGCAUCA", "bound/input enrichment": "0.0494 ratio"}
{"Strand": "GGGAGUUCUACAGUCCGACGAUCGAAAGAGAAGCUAAAACACUAAUAGAGAAGAGGAUUGGCAAAGAGAAUUUCAUAGAGAAACUAGGAUUUAUUAGCAAACAUGAGUUAUAUUCCAGAGCGUCUCAGAAACCCCAGCCAAACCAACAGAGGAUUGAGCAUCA", "bound/input enrichment": "5.85 ratio"}
{"Strand": "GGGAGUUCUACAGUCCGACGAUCACCUCCCCCUCCCGCCUCACCCCACCCCCGCUUUUUGGAAAGUUUUUGGCGUUUCUUUUCCUUCCCCAUACAAAGUGAUUACAGUUUAGAGUCUAUGGGUCUAUCGAAGGGCUUGACGGACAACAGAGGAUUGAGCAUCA", "bound/input enrichment": "1.32 ratio"}
{"data": "Series 4", "target": "RNA binding protein fox-1 homolog 2, RRM domain, GST-SBP tag (RBFOX2, Homo sapiens, UniProt O43251-10, residues 100-194)", "technique": "RNA Bind-n-Seq", "form": "RNA", "sample": "in vitro", "tested at": "365 nM", "setting": "natural RNA segment, single round, ends assumed", "relative to": "no-protein control", "direction": "higher = stronger binding", "Construct (chain)": "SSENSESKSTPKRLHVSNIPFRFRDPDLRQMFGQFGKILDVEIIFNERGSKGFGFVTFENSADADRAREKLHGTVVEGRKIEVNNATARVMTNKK"}
{"Strand": "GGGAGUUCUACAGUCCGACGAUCCUGUACCACUAGGGCAUCCAGAACAAGCCCCACCCUAACAGUGGGGGCAGGGAGGGUACAGCCAGGCUCACAGCACUGAGAGUCUCAACCAGCUAAGCUAAAUUGCAAGCUGGAAUUCUCGGGUGCCAA", "RBNS enrichment (R)": 0.346}
{"Strand": "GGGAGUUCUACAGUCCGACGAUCCCAGCUGUAUUAUGUACUGUACUGUACUAGGAGUUCCCUAGUUUGCUAGGUGAGUUUCAUUCUGGAAAAGGAGAAAGAUAGUGAUGUCUAGAUGCCUGUAGCCUGUGGGGUGGAAUUCUCGGGUGCCAA", "RBNS enrichment (R)": 0.839}
{"Strand": "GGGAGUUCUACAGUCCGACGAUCAAGCAAAGACCAAAGAUGCAUCAGCUUAAAGAGAAGUCAGACGACAAUGACGAAUCAUUCCAAGGCCAAGCUGCAACUGAGCCACUCACCCACCAACAGGAAGGCCUGGUUGGAAUUCUCGGGUGCCAA", "RBNS enrichment (R)": 0.556}
{"Strand": "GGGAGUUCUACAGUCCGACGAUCUUUGGUUUAUUUUCUUCCCAUGUCGCCCAGAGAUUACUUGUGUGUGUGCCAUUCUGCUCAAAACUAAAUGGUGGUCAGGUUCAAGUAAAGAAAAAUAAAACAAGCUGCAUUGGAAUUCUCGGGUGCCAA", "RBNS enrichment (R)": 0.321}
{"Strand": "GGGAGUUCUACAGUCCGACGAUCAUGUGACCAGGUGUCGUCCUGCAUGUAAAUCUCCGAGCUGAGUCUGACUCACAGCCCAUGCUGUCAUCUGUGGCACAAGUGGGUGUGAGUACGUCCUGCAUGCACUAACGUGGAAUUCUCGGGUGCCAA", "RBNS enrichment (R)": 2.04}
{"Strand": "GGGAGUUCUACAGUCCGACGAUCUGAGAUGUCACCAUUUGUCUUUCACAGUGACUUCCUUCCCUGAGCAAACAUUCAUGUGGCUUCGCUGGGGAGGAAAAAAAUAAGCACCUACUGUGUGCCAGGCACUAUGAUGGAAUUCUCGGGUGCCAA", "RBNS enrichment (R)": 0.334}
{"Strand": "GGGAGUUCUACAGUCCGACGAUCGUAAGCCUGAAGUGAGGAUACUGCAAUUUUCGGAGAAAAGAACAGCAGCUCUUUAAGUGUUUGCAUUUUCUAUUUGGGGGGCAGGGAACUGUCAUUCAUUUUGCACAAUUUGGAAUUCUCGGGUGCCAA", "RBNS enrichment (R)": 0.879}
{"Strand": "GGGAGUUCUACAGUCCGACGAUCGUCUUGAAUCAGACUCAGAAAUGGCUUCUUCCCAGCCCUGCCUACAAGUUUUUCUCUGGGGUCCUCUUUCAAGGAUGUCCACGGUACCUUCCUCCUGAAACUUGAGGAAGUGGAAUUCUCGGGUGCCAA", "RBNS enrichment (R)": 0.361}
{"Strand": "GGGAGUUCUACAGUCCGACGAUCUCCACCGUGGUGUUUCUGCAGGGCCCAGAGCUAAGAACAAACAAAGUUAUAAGAACGUACACAGUGAAAGGAGUACAAGAGCAGUGUAAAGAAAUAGUUUUCUUAGAUAUUGGAAUUCUCGGGUGCCAA", "RBNS enrichment (R)": 0.345}
